{"data": "Measurements from different studies", "cell line": "MCF7", "note": "Lines come from different studies, so protocols differ. ± marks the error that the study gave."}
{"Compound": "COc1ccc(C2CC(=O)c3c(cc(O)c(CC=C(C)C)c3O)O2)cc1 (centres unmarked)", "assay": "cytotoxicity, MTT", "setting": "14.11 µM, 48 h", "endpoint": "growth inhibition", "result": "0.003%"}
{"Compound": "CC[C@@H]([C@H](CC)c1ccc(O)cc1)[C@@H](C)c1ccc(O)cc1", "assay": "cell growth or viability, ATP luminescence", "setting": "5 days", "endpoint": "EC50", "result": "0.0097 µM"}
{"Compound": "Cc1cc(C)nc(SCC(=O)Nc2ncc(Cc3cccc4ccccc34)s2)n1", "assay": "cell growth or viability, MTT", "setting": "72 h", "endpoint": "EC50", "result": "27.6 to 44.9 µM"}
{"Compound": "Oc1cccc(-c2cccc(O)n2)n1.[Cl-].[Cl-].[Ru+2].c1ccc(-c2ccnc3c2ccc2c(-c4ccccc4)ccnc23)cc1.c1ccc(-c2ccnc3c2ccc2c(-c4ccccc4)ccnc23)cc1", "assay": "cell viability", "scale": "relative to: dark EC50 over light EC50", "endpoint": "phototoxicity index", "result": 8.9}
{"Compound": "CC(C)C[C@@H](NC(=O)[C@H](C)NC(=O)CNC(=O)[C@@H](NC=O)C(C)C)C(=O)N[C@@H](C)C(=O)N[C@@H](C(=O)N[C@H](C(=O)N[C@@H](C(=O)N[C@@H](Cc1c[nH]c2ccccc12)C(=O)N[C@H](CC(C)C)C(=O)N[C@@H](Cc1c[nH]c2ccccc12)C(=O)N[C@H](CC(C)C)C(=O)N[C@@H](Cc1c[nH]c2ccccc12)C(=O)N[C@H](CC(C)C)C(=O)N[C@@H](Cc1c[nH]c2ccccc12)C(=O)NCCO)C(C)C)C(C)C)C(C)C", "assay": "flow cytometry", "setting": "20 nM, 48 h", "endpoint": "cells in G2/M phase", "result": "24.7 ± 2.54%"}
{"Compound": "NC(=O)c1ccc(-c2ccccc2Cl)c2c3c([nH]c12)CC[C@@H](N)C3", "assay": "cell proliferation", "setting": "96 h", "endpoint": "IC50", "result": "0.0179 µM"}
{"Compound": "C[C@@H]1CC[C@@H]([C@@](O)(CNCc2ccccc2F)COCc2ccccc2)[C@H](OCc2ccccc2)C1", "assay": "cell growth or viability, MTT", "setting": "10 µM, 72 h", "endpoint": "inhibition", "result": "83.7%"}
{"Compound": "CCC(=CCc1c(O)cc2c(c1O)C(=O)CC(c1ccc(OC)c(O)c1)O2)CC (centres unmarked)", "assay": "cytotoxicity, MTT", "setting": "100.4 µM, 48 h", "endpoint": "growth inhibition", "result": "95.2%"}
{"Compound": "CSC(=NN=C(C)c1ccc(S(=O)(=O)N2CCC(C)CC2)cc1)N(C)C", "assay": "flow cytometry", "setting": "4.29 µM (IC50), 72 h", "endpoint": "cells in G0/G1 phase", "result": "41.5%"}
{"Compound": "O=C1CC[C@H](N2Cc3cc(N4CCN(CC5CCN(c6ccc([C@@H]7c8ccc(O)cc8CC[C@@H]7c7ccccc7)cc6)CC5)CC4)ccc3C2=O)C(=O)N1", "assay": "cell growth, CellTiter-Glo", "setting": "120 h", "endpoint": "GI50", "result": "0.0023 µM"}
{"Compound": "Cc1c(COc2cc(OCc3cccc(C#N)c3)c(CNC(CO)(CO)CO)cc2Cl)cccc1-c1cccc(OCCCCCC(=O)NO)c1", "assay": "flow cytometry, PI staining", "setting": "20 µM, 48 h", "endpoint": "G1 phase cells", "result": "64.2%"}
{"Compound": "CCC(=CCc1c(O)cc2c(c1O)C(=O)CC(c1ccc(O)cc1)O2)CC (centres unmarked)", "assay": "cytotoxicity, MTT", "setting": "108.6 µM, 48 h", "endpoint": "growth inhibition", "result": "83.6%"}
{"Compound": "CC(=O)[O][Pd][c]1ccccc1-n1nc(C)cc1C.CC(=O)[O][Pd][c]1ccccc1-n1nc(C)cc1C", "assay": "annexin V/PI flow cytometry", "setting": "25 µM, 24 h", "endpoint": "late apoptotic cells", "result": "86.3 ± 2.14%"}
{"Compound": "COCCn1cc(COc2cccc(Cc3cnc(NC(=O)CSc4nc(C)cc(C)n4)s3)c2)nn1", "assay": "cell viability, MTS", "setting": "10 µM", "endpoint": "inhibition", "result": "10.5 ± 1.7%"}
{"Compound": "CCCCCCCCCCCCCC(=S)NCCCC[C@H](NC(=O)OCc1ccccc1)C(=O)Nc1ccccc1", "assay": "cell growth or viability, MTT", "setting": "72 h", "endpoint": "EC50", "result": "6.88 to 8.41 µM"}
{"Compound": "CC(=O)[O][Pd][c]1cc(C)ccc1N1N=C(C)C(C)(C)C1=O.CC(=O)[O][Pd][c]1cc(C)ccc1N1N=C(C)C(C)(C)C1=O", "assay": "FLICA flow cytometry", "setting": "25 µM, 24 h", "endpoint": "caspase-3/7 active cells", "result": "41.1 ± 4.3%"}
{"Compound": "COc1ccc(CNC[C@](O)(COCc2ccccc2)[C@@H]2CC[C@@H](C)C[C@H]2OCc2ccccc2)cc1", "assay": "cell growth or viability, MTT", "setting": "10 µM, 72 h", "endpoint": "inhibition", "result": "84.1%"}
{"Compound": "CSC(=S)N/N=C(\\C)c1ccc(S(=O)(=O)N2CCC(C)CC2)cc1", "assay": "flow cytometry", "setting": "4.29 µM (IC50), 72 h", "endpoint": "cells in G2/M phase", "result": "35.3%"}
{"Compound": "C[C@@H]1Cc2c([nH]c3ccccc23)[C@@H](c2c(F)cc(/C=C/C(=O)O)cc2F)N1C12CC(C1)C2", "assay": "RNA-seq, item: CT62 mRNA", "setting": "1 µM, 24 h, E2-induced gene", "scale": "relative to: DMSO vehicle", "endpoint": "log2 fold change", "result": -3.7}
{"Compound": "CC(=O)[O][Pd][c]1ccccc1N1N=C(C)C(C)(C)C1=O.CC(=O)[O][Pd][c]1ccccc1N1N=C(C)C(C)(C)C1=O", "assay": "JC-1 flow cytometry", "setting": "25 µM, 24 h", "endpoint": "cells with decreased ΔΨm", "result": "65.6 ± 1.23%"}
{"Compound": "COc1ccccc1CNC[C@@](O)(COCc1ccccc1)[C@@H]1CC[C@@H](C)C[C@H]1OCc1ccccc1", "assay": "cell growth or viability, MTT", "setting": "10 µM, 72 h", "endpoint": "inhibition", "result": "93.4%"}
{"Compound": "Nc1cc2cccnc2c2ncccc12.[Cl-].[Cl-].[Ru+2].c1cnc2c(c1)ccc1cccnc12.c1cnc2c(c1)ccc1cccnc12", "assay": "MTT", "setting": "blue light", "scale": "relative to: IC50 HFF-1 over IC50 MCF7", "endpoint": "selectivity index", "result": 0.7}
{"Compound": "C[C@@H]1CC[C@@H]([C@](O)(CNCc2cccc(F)c2)COCc2ccccc2)[C@H](OCc2ccccc2)C1", "assay": "cell growth or viability, MTT", "setting": "10 µM, 72 h", "endpoint": "inhibition", "result": "95.3%"}
{"Compound": "CCC(=CCc1c(O)cc2c(c1O)C(=O)CC(c1ccccc1O)O2)CC (centres unmarked)", "assay": "cytotoxicity, MTT", "setting": "3.393 µM, 48 h", "endpoint": "growth inhibition", "result": "-4.5%"}
{"Compound": "CC(=NN=c1sc(C(=O)c2ccccc2)nn1-c1ccccc1)c1ccc(S(=O)(=O)N2CCC(C)CC2)cc1", "assay": "annexin V/PI", "setting": "concentration not given, 72 h, at IC50", "endpoint": "total apoptotic cells", "result": "14.3%"}
{"Compound": "CCNC(=S)N/N=C(\\C)c1c(O)c2ccccc2oc1=O", "assay": "cell growth, MTT", "scale": "relative to: IC50 BJ-1 over MCF7", "endpoint": "selectivity index", "result": "> 4.41"}
{"Compound": "C[C@@H]1CC[C@@H]([C@](O)(COCc2ccccc2)Cn2cnc3ccccc32)[C@H](OCc2ccccc2)C1", "assay": "cell growth or viability, MTT", "setting": "30 µM, 72 h", "endpoint": "inhibition", "result": "95.7%"}
{"Compound": "COC(=O)c1cc(NC2=NC(=O)C(=Cc3ccc(C)cc3)S2)ccc1OC(C)=O", "assay": "GC-MS, item: L-Valine", "setting": "1 µM", "scale": "relative to: DMSO", "endpoint": "metabolite level", "result": "0.01 fold change"}
{"Compound": "CCC(=CCc1c(O)cc2c(c1O)C(=O)CC(c1cccc(O)c1)O2)CC (centres unmarked)", "assay": "cytotoxicity, MTT", "setting": "54.29 µM, 48 h", "endpoint": "growth inhibition", "result": "59.9%"}
{"Compound": "COc1ccc(COC[C@](O)(CNCc2ccc(F)cc2)[C@@H]2CC[C@@H](C)C[C@H]2OCc2ccc(OC)cc2)cc1", "assay": "cell growth or viability, MTT", "setting": "10 µM, 72 h", "endpoint": "inhibition", "result": "98%"}
{"Compound": "C=CCc1c(O)cc2c(c1O)C(=O)CC(c1ccc(O)cc1)O2 (centres unmarked)", "assay": "cytotoxicity, MTT", "setting": "16.01 µM, 48 h", "endpoint": "growth inhibition", "result": "-6.76%"}
{"Compound": "C[C@@H]1CC[C@@H]([C@@](C)(O)Cn2ccnc2)[C@H](OCc2ccccc2)C1", "assay": "cell growth or viability, MTT", "setting": "30 µM, 72 h", "endpoint": "inhibition", "result": "56%"}
{"Compound": "Cc1ccc2c(Cl)cc(Cl)c([O-])c2n1.Cc1ccc2c(Cl)cc(Cl)c([O-])c2n1.[Co+2].c1cnc2c(c1)ccc1cccnc12", "assay": "cell growth or viability, MTT", "setting": "48 h", "endpoint": "IC50", "result": "7.22 µM"}
{"Compound": "COC(=O)c1cc(NC2=NC(=O)C(=Cc3ccc(N(C)C)cc3)S2)ccc1OC(C)=O", "assay": "GC-MS, item: Scyllo-Inositol", "setting": "1 µM", "scale": "relative to: DMSO", "endpoint": "metabolite level", "result": "-0.13 fold change"}
{"Compound": "COc1cccc(CNC[C@](O)(COCc2ccccc2)[C@@H]2CC[C@@H](C)C[C@H]2OCc2ccccc2)c1", "assay": "cell growth or viability, MTT", "setting": "10 µM, 72 h", "endpoint": "inhibition", "result": "95.7%"}
{"note": "Excerpt of the above:"}
{"Compound": "COc1ccccc1CNC[C@@](O)(COCc1ccccc1)[C@@H]1CC[C@@H](C)C[C@H]1OCc1ccccc1", "assay": "cell growth or viability, MTT", "setting": "10 µM, 72 h", "endpoint": "inhibition", "result": "93.4%"}
{"Compound": "CC[C@@H]([C@H](CC)c1ccc(O)cc1)[C@@H](C)c1ccc(O)cc1", "assay": "cell growth or viability, ATP luminescence", "setting": "5 days", "endpoint": "EC50", "result": "0.0097 µM"}
{"Compound": "C[C@@H]1Cc2c([nH]c3ccccc23)[C@@H](c2c(F)cc(/C=C/C(=O)O)cc2F)N1C12CC(C1)C2", "assay": "RNA-seq, item: CT62 mRNA", "setting": "1 µM, 24 h, E2-induced gene", "scale": "relative to: DMSO vehicle", "endpoint": "log2 fold change", "result": -3.7}
{"Compound": "COC(=O)c1cc(NC2=NC(=O)C(=Cc3ccc(C)cc3)S2)ccc1OC(C)=O", "assay": "GC-MS, item: L-Valine", "setting": "1 µM", "scale": "relative to: DMSO", "endpoint": "metabolite level", "result": "0.01 fold change"}
